Assay results from different studies.
Every numbered part comes from another study and shows a few of its results, in no order.

Sample 1
Target: RING finger protein unkempt homolog, zinc fingers 1-6, SBP tag (UNK, Homo sapiens, UniProt Q9C0B0, residues 30-357)
Chain of UniProt Q9C0B0 (30-357, looked up): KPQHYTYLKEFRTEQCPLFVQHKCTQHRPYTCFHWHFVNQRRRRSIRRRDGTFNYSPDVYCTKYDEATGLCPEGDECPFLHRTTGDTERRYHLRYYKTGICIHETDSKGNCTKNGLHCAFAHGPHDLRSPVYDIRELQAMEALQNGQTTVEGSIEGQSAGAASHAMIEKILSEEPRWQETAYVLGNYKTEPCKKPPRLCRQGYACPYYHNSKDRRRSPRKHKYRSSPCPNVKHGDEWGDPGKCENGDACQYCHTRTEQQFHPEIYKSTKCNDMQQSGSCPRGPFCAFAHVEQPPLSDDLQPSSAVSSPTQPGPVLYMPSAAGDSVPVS
Method: RNA Bind-n-Seq
Form: RNA
Matrix: in vitro
Tested at: 100 nM
Setting: RNA with constant flanks, vertebrate orthologous sites, ends assumed
Baseline: input RNA pool
Reading: higher = stronger binding
| Strand | bound/input enrichment [ratio] |
| --- | --- |
| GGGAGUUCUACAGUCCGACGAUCGCUUGCCCGUUGACCCGAAAAAUAGGACUUUUUAGAAUUGCAUUGCCACUUCUAAAAUCCUAGCAAUAUUAGAAUAACACAUCAGUGAGAUAAAUUUUACUCAAUUAUUUUACAAACCAACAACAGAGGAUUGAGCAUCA | 1.07 |
| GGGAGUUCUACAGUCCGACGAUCCGAAAGCUUCAGGCACGAGCCCGAGAGUAGAAACGCAGGAUCUUGGUUAUCUUCUUCUAUUAGGAAUAGAUGUACACCUUUGUUCUCCAGGAGGAGAAGAGAAGGAAGAGAUGAAUCUUCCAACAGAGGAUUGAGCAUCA | 0.202 |
| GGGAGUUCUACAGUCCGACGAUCCACAUCUGGUGAUAUUUGGCCUGGCCUUUCGGCUUAUGAUAACAGUCCCAGAUCACCCCAUAGUCCUUCACCUAUUGCUACACCACCUAGUCAGAGUUCAUCUUGCUCUGAUGCUCCUAUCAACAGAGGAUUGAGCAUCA | 0.667 |
| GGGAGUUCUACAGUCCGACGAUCUCAUCUCUUUUUAUAUGUCCAAAAAUGGCUUUGAAUUUUUAAACAGUUGCUAGUUUUAAUUAGCUCUGUUCUCAUGAAGUAUUGUUAUAGUUCACCACAAACAUAUCUGUCUGAUUACUUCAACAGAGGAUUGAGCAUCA | 0.375 |
| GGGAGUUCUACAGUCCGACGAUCGUGACUUUGGACGUCCGCUCCUGAUCUGCGCAGAUCCUGCUUAGUCCCCGACCUUGCAGGUUAAUUUUCUUUGCCCAGGCUCGAGGCCUCUGUCGCUACCAUGCUUCGCCAGAUCAUCACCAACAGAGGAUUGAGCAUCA | 0.286 |
| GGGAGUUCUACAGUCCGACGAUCUCUGUAGUUCUUUCAUUAUAAUUGAUUGAGUUAAGGAGGUGGUAAAUUUACCACUACAGGACUGCACACCCUGUUUUUGUUUUUAAUGCAUAUGUUUUUUAUUAGUUAUGGGUAUAAUUCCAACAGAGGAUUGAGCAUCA | 1.02 |
| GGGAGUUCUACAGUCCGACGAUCAAAUUUAUUUCAUGCCCUGGACUCCCUACCGUACUGAUACUCUGAUAGAAUAUGCUUCUUUAGAAGAUUUCCAAAAUAGUCGCCAGACAACAACAUAUAAACUUCCUAAUCGAGUAGAUGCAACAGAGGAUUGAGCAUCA | 0.873 |
| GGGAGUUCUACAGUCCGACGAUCUAGUGCUUAAACCAAGAACCAUUCAAAAAUGCUAUUUAUUUGUUUCUGUAAGUUUGUACAUAAUAUCAACCUCAUUUUUUUUUCAACCUCAUAUUCUUAAAUUUUGAUUUUUAUUUUUUUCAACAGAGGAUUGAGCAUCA | 1.11 |

Sample 2
Target: Prothrombin, mature alpha-thrombin (F2, Homo sapiens, UniProt P00734)
Method: aptamer microarray, sandwich
Form: DNA with 2'F-ANA
Matrix: in vitro
Tested at: 200 nM
Setting: whole 15-mer aptamer, many near background
Added: Cy3 exosite-II aptamer, 400 nM
Reading: higher = stronger binding
Strand: GGTTGGTGTGGTTGG
| Modification | mean fluorescence intensity |
| --- | --- |
| 2'F-ANA at 1 2 3 4 6 7 10 11 13 15 | 52.9 a.u. |
| 2'F-ANA at 1 2 3 5 6 8 10 11 | 50.9 a.u. |
| 2'F-ANA at 2 4 7 9 11 12 15 | 440 a.u. |
| 2'F-ANA at 1 2 3 4 6 7 10 11 12 14 15 | 52.8 a.u. |
| 2'F-ANA at 7 9 10 11 12 | 192 a.u. |
| 2'F-ANA at 1 2 3 7 9 10 11 12 13 14 | 54 a.u. |
| 2'F-ANA at 4 5 8 9 11 12 14 15 | 46.7 a.u. |
| 2'F-ANA at 1 3 4 7 11 13 14 15 | 95.3 a.u. |
| 2'F-ANA at 1 2 5 10 11 12 13 15 | 74.3 a.u. |
| 2'F-ANA at 1 2 4 8 9 11 13 | 87.2 a.u. |
| 2'F-ANA at 2 6 8 10 12 13 15 | 138 a.u. |
| 2'F-ANA at 1 5 6 8 10 11 14 15 | 51.7 a.u. |
| 2'F-ANA at 1 3 4 8 9 10 11 13 14 | 55.7 a.u. |
| 2'F-ANA at 2 3 4 5 9 12 14 | 55.3 a.u. |
| 2'F-ANA at 1 3 4 6 7 8 10 11 12 14 | 54.4 a.u. |
| 2'F-ANA at 4 7 9 12 14 | 114 a.u. |
| 2'F-ANA at 2 4 5 6 8 9 11 12 14 | 46.8 a.u. |
| 2'F-ANA at 2 3 4 7 8 9 10 13 14 | 201 a.u. |
| 2'F-ANA at 1 2 3 6 10 11 12 | 77.3 a.u. |
| 2'F-ANA at 2 4 5 6 7 9 10 11 13 14 | 52.8 a.u. |
| 2'F-ANA at 2 3 4 5 6 8 9 10 12 | 74.1 a.u. |
| 2'F-ANA at 1 3 4 7 8 9 11 12 13 15 | 263 a.u. |
| 2'F-ANA at 1 2 4 6 7 9 11 | 89 a.u. |
| 2'F-ANA at 1 2 4 5 6 8 9 10 13 15 | 47.6 a.u. |

Sample 3
Target: RNA binding protein fox-1 homolog 2, RRM domain, GST-SBP tag (RBFOX2, Homo sapiens, UniProt O43251-10, residues 100-194)
Method: RNA Bind-n-Seq
Form: RNA
Matrix: in vitro
Tested at: 365 nM
Setting: natural RNA segment, single round, ends assumed
Baseline: no-protein control
Reading: higher = stronger binding
Construct (chain): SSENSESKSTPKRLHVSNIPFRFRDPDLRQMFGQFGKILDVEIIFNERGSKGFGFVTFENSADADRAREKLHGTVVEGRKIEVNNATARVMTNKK
| Strand | RBNS enrichment (R) |
| --- | --- |
| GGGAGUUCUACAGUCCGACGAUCUCUCUACAGGUGUCUUCUGGGGGGCAGAACCAAUUGGAAGGAAGAAAGGGACCCCUCUCCAGUCCUGGCUCCUUCCUACAUCCUGGGCUCCUGAAGAAGCUGUCUUCCCAUGGAAUUCUCGGGUGCCAA | 0.408 |
| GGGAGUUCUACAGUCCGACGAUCGCAAAAAGCCACCAAAUGAAGGGAUUCUAUCCAGCAAGAUCCUGUCCAAGAGUAGCCUGUGGAAUCUGAUCAGUUACUUUAAAAAAUGACUCCUUAUUUUUUAAAUGUUUUGGAAUUCUCGGGUGCCAA | 0.491 |
| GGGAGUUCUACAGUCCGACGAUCAGAGCCGUGGUCCUUUGGGGUGAACUACCUUGGUUCCCCCACUGAUCACAAAAACAUGGUGGGUCCAUGGGCAGAGCCCAAGGGAAUUCGGUGUGCACCAGGGUUGACCCUGGAAUUCUCGGGUGCCAA | 0.229 |
| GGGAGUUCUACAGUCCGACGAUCUAUGUCUGGAGGGUACCAACUCCUCCAGCCUAGACCCCUGGCUUUGUCCAACACCAGCCCUGACCCAAGUCCAAAUGUUUACAGGGAGCCUCCUGCCUACCCCACUCUCUUGGAAUUCUCGGGUGCCAA | 0.307 |
| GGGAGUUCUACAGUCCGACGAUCCCAGGCUUCGUCUUAUUUCUACUGUUUUUGUCGCAACUUCCAUUGAUUUAUGUCCCUUCCCUCCCCCCUAAGUACAUCAGGGAACCUUUCCACACUAUAAAUGAUAUGACUGGAAUUCUCGGGUGCCAA | 2.06 |
| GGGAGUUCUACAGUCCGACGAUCUGGUUUGAGAUGGCCACUUAUUGUCCUUAAAAAUCCAUACUGAUAUAUGCAGUCAUUUUGAAUUGGACAGUGCCUUCUCUUUUUUUUUCUCCUCUUCUUCCAUCUCCCUCUGGAAUUCUCGGGUGCCAA | 0.406 |
| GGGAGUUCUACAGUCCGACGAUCAGUAGGAUUGUUGAUGAAAUUGAGCGGUUGGAACACCCUCAUGGAACACUGGCAACAUGGAAUGUAGAGAGCUGAUGUCUUCCCCCUCAUAGAGGCCAUUGGCUUCCUUUUGGAAUUCUCGGGUGCCAA | 0.771 |
| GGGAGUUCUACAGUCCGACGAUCUUUGACCCCACCCCCAACCCCAAUUGGGUCACGAACAACAGGUUGAGAACUGCUGCUCUAAGGCCUUCUGUAGAAGUCCAUUCCUAUCACAGUAAGGCUGAACUCUGAAAUGGAAUUCUCGGGUGCCAA | 0.426 |

Sample 4
Target: Interferon regulatory factor 3, full length, phosphomimetic (IRF3, Homo sapiens, UniProt Q14653, residues 1-427, S386D/S396D/S398D/S402D/T404D/S405D)
Method: protein-binding microarray
Form: double-stranded DNA, one strand shown
Matrix: in vitro
Tested at: 2540 nM top
Setting: 60-bp whole probe
Added: salmon DNA 0.4 mg/ml
Baseline: random background probes
Reading: higher = stronger binding
All sequences stand within: GCCTAGCAC … GTCTTGATTCGCTTGACGCTGCTG
Residues (chain): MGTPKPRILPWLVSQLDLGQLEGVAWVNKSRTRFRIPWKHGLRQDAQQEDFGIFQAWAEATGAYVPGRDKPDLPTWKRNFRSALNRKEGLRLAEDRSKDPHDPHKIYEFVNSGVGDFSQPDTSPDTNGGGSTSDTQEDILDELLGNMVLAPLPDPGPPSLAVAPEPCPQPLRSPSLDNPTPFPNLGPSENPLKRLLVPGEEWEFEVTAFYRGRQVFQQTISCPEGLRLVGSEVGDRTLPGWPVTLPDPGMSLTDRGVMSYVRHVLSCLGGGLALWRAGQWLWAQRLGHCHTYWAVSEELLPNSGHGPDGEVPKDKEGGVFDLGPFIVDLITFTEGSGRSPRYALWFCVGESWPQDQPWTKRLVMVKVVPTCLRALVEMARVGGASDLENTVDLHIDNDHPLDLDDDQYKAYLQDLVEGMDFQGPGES
| Strand | fitted relative affinity |
| --- | --- |
| CAGAAGCCAGAGAGGACAGGGTGCTAG | -0.557 z-score |
| TTTGGACTGGACTATCGGTTAGTGCTA | -0.408 z-score |
| TTAGGAATCGGGTATCGGTTAGTGCTA | 0.749 z-score |
| TTAGGACTGGGGATCGGTTAGTGCTAG | -0.604 z-score |
| TTAGGACTGAGACTGGATTAGTGCTAG | -0.615 z-score |
| GACGATTTCAGTCTCGAGAAGTGCTAG | 2.34 z-score |
| GGCTCCTCCCCGCTTCTGGAGTGCTAG | -0.509 z-score |
| GACGGACTGGGAACTGGGGACGTGCTA | -0.82 z-score |
| TTACGTCTCGGACTGGGTTAGTGCTAG | -0.235 z-score |
| GACGGTATCGGTCTCGGGGCGTGCTAG | 4.62 z-score |
| GACGATTCCGGGACTGGAGACGTGCTA | 0.155 z-score |
| TTAGGACTTCTTTTCCTTTAGTGCTAG | 1.26 z-score |
| GACGTTTTCGACTTTCGGGACGTGCTA | 2.68 z-score |
| TTAGATATCGGTATCGATTAGTGCTAG | 2.35 z-score |
| TTAGAACTGACTTTCGATTAGTGCTAG | 0.844 z-score |
| GACGGTTTCGGGTAGCGGGACGTGCTA | 3.58 z-score |
| TACGGTCTCCTTCTCCTGACGTGCTAG | 4.11 z-score |
| TCAGATTCCAGTTTCGATTAGTGCTAG | 5.02 z-score |
| CTAGTTTTACTTTCTATGTCGTGCTAG | 4.72 z-score |

Excerpt of the above (sample 2):
| Modification | mean fluorescence intensity |
| --- | --- |
| 2'F-ANA at 1 3 4 6 7 8 10 11 12 14 | 54.4 a.u. |
| 2'F-ANA at 4 7 9 12 14 | 114 a.u. |
| 2'F-ANA at 2 4 5 6 8 9 11 12 14 | 46.8 a.u. |
| 2'F-ANA at 2 3 4 7 8 9 10 13 14 | 201 a.u. |
| 2'F-ANA at 1 2 3 6 10 11 12 | 77.3 a.u. |
